Measurements from different studies.
Each numbered part is a random draw from the data of one study; scales do not carry over between parts. Changes are numbered by the printed parent chain.

Block 1 — method: protein-binding microarray; form: double-stranded DNA, one strand shown; medium: in vitro; concentration: 250 nM; notes: 60-bp whole probe; added: salmon DNA 0.4 mg/ml; baseline: random background probes; direction: higher = stronger binding; all sequences stand within: GCCTAGCAC … GTCTTGATTCGCTTGACGCTGCTG
Target: Interferon regulatory factor 5, full length, phosphomimetic (IRF5, Homo sapiens, UniProt Q13568-2, residues 1-514, K96S/S451D/S453D/S456D/S462D)
With `GACGATATCGTGTATCGAGACGTGCTA` the log fluorescence was 1.4 z-score.
The log fluorescence of `TTAGGACTGCTTATCCTTTTGTGCTAG` is reported as -0.0631 z-score.
With `GACGGACGGGGGTTTCGGGACGTGCTA` the log fluorescence was 2.84 z-score.
`TCACATCTGTCATGTTTGACTGTGCTA` gave a log fluorescence of 0.269 z-score.
With `TTAGGTTTCGACTTTCGTTTAGTGCTA` the log fluorescence was 9.13 z-score.
`TTACGTTTCGGTTCCGGTTAGTGCTAG` gave a log fluorescence of 9.98 z-score.
`TTACATATCAGTTTCGATTAGTGCTAG` gave a log fluorescence of 10.4 z-score.
`TTAGATATCGGGTATCGTTTAGTGCTA` gave a log fluorescence of 3.95 z-score.
`TTAGGTACCCTTTTCCTTTAGTGCTAG` gave a log fluorescence of 0.384 z-score.
The log fluorescence of `GACGGTTTCGACTCTGGGGACGTGCTA` is reported as 5.32 z-score.
The log fluorescence of `GACGGTTTCGGGCTCGGGACGTGCTAG` is reported as 4.54 z-score.
With `CACGGACTGGGACTGGGGACGTGCTAG` the log fluorescence was -0.558 z-score.
For `TTAGGATTCGGGTTTCGGTTAGTGCTA`, the log fluorescence was 8.04 z-score.
`GACGGTCTGCTTTTCCTGACGTGCTAG` gave a log fluorescence of 0.178 z-score.
`GACGGACTGGACACAGGGGACGTGCTA` has a log fluorescence of -0.326 z-score.

Block 2 — method: competition protein-binding microarray; form: double-stranded DNA, one strand shown; medium: in vitro; concentration: 2 µM; added: Pho4 competitor, 0.05 µM; direction: higher = stronger binding
Target: Centromere-binding protein 1, full length, His-tagged (CBF1, Saccharomyces cerevisiae, UniProt P17106, residues 1-351)
Chain of UniProt P17106 (whole entry, looked up): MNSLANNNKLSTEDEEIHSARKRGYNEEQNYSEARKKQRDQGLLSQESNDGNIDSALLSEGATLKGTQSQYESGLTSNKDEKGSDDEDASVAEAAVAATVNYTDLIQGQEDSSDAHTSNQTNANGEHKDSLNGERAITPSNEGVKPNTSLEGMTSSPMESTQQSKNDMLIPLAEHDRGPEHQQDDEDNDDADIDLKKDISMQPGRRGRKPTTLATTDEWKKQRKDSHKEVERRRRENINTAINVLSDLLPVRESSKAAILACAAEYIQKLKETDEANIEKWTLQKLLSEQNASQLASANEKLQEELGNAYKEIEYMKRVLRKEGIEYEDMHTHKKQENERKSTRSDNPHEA
Notes: whole 60-bp probe, lowest competitor level
With `GCTCAGGAGCCCTGACTCGTGTTGGCTCGAGTAAACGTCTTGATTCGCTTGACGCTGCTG` the fluorescence intensity was 68.5 a.u.
The fluorescence intensity of `AAGCTAAAGCTCCGTCACGTGTAGGTGGATACTGTTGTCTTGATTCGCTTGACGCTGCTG` is reported as 2730 a.u.
`CTAACGAAGGTTTGGCGAGTGGGTGACAAGCCAAGTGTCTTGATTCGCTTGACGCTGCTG` has a fluorescence intensity of 66.1 a.u.
With `CCATTCATGTCGAGTCACGTGGTGAATACAGATAATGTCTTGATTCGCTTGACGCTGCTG` the fluorescence intensity was 10400 a.u.
With `AAATTACTAAGTTGTCACCATACTTACCCCGTATGAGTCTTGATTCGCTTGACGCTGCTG` the fluorescence intensity was 90 a.u.
With `GACTTCATTTGGAACATCATATAGACAAATGGAGTTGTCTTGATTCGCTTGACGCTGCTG` the fluorescence intensity was 81.9 a.u.
For `AAAAGTTTTGAAAAACACGTGCCGATGATTTTTTGTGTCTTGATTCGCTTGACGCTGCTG`, the fluorescence intensity was 2570 a.u.
`GCCAGTAATTTACTACACGTGTATATATCAGAAAAAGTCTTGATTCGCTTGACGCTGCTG` gave a fluorescence intensity of 1550 a.u.
For `CTAACGAAGGTTTGTCGAGTGGGTGACAAGCCAAGTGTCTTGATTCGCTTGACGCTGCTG`, the fluorescence intensity was 76.9 a.u.
With `AACTTCAACACCATCACCGTGAAGAACATAGAATTTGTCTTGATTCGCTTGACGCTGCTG` the fluorescence intensity was 87 a.u.
For `CCGGTCCCCCGATCCCATGCGCCAGGCGCGCCGGCAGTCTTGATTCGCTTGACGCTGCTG`, the fluorescence intensity was 66.8 a.u.
`CGGGGTTAAGTTTGAGGTGTGGGTGGCTTGCAGCAGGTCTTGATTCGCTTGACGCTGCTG` gave a fluorescence intensity of 69.2 a.u.
`CCTTGTCAGAGTCCGCACGGCCTTTTACTCTGGTGCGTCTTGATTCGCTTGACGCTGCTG` has a fluorescence intensity of 64.3 a.u.
With `AAGCAAGGTGATGTTCAGCTGACCGGCAGCATCGGCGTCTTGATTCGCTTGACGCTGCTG` the fluorescence intensity was 145 a.u.
With `TGGACAAGACCAAGCCAGGTGACGGAGTTAACGTTGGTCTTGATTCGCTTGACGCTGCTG` the fluorescence intensity was 86.2 a.u.
`TGCGCAACAACTTGTTTTGTGGGTGTATGTCTAGAAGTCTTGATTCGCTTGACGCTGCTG` gave a fluorescence intensity of 71.9 a.u.

Block 3 — target: CCND1, cyclin fold, Cln2 fusion (human); method: yeast growth competition, sequencing; medium: yeast; notes: weak parent motif; baseline: not given; direction: higher = stronger binding
Parent: E2F1 docking peptide (human); PPVKRRLDLETDH; partner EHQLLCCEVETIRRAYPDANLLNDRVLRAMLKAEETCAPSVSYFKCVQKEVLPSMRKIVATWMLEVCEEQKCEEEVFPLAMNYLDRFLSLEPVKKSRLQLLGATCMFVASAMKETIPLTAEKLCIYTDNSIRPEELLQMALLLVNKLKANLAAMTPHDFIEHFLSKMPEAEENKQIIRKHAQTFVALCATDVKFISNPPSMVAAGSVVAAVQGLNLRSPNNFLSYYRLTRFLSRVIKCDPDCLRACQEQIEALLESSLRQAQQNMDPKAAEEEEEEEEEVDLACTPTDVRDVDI
Under “normalised enrichment score”, `K4L` is recorded as 0.382.
For `R6Y`, “normalised enrichment score” read 0.284.
`H13D` — result for “normalised enrichment score”: 1.14.
Under “normalised enrichment score”, `K4R` is recorded as 0.714.
`R6A`: “normalised enrichment score” 0.487.
`D8M`: “normalised enrichment score” 0.102.
For `P1K`, “normalised enrichment score” read 0.655.
`D8Q`: “normalised enrichment score” 0.112.
`R6N` — result for “normalised enrichment score”: 0.0996.
Under “normalised enrichment score”, `L7Q` is recorded as -0.277.
`P1W`: “normalised enrichment score” 0.651.
For `V3Y`, “normalised enrichment score” read 0.321.
For `D8G`, “normalised enrichment score” read 0.297.
`D8V`: “normalised enrichment score” 0.798.
Under “normalised enrichment score”, `E10V` is recorded as -0.0098.
Under “normalised enrichment score”, `H13R` is recorded as 0.251.
`H13N`: “normalised enrichment score” 0.699.
`R5A L7A` — result for “normalised enrichment score”: -0.105.

Block 4 — method: RNA Bind-n-Seq; form: RNA; medium: in vitro; concentration: not given; baseline: input RNA pool; direction: higher = stronger binding
Target: RING finger protein unkempt homolog, zinc fingers 1-6, GST-SBP tag (UNK, Homo sapiens, UniProt Q9C0B0, residues 30-357)
Notes: RNA with constant flanks, human-mouse chimeric sites, ends assumed
Construct (chain): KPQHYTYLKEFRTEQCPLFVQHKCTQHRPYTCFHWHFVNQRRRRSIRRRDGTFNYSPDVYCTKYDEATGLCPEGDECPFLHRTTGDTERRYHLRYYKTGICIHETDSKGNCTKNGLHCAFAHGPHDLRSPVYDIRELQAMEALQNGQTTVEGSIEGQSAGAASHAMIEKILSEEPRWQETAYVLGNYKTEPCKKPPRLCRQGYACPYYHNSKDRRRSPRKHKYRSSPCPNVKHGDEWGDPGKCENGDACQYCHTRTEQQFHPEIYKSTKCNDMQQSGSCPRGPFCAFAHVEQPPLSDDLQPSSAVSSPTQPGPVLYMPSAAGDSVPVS
For `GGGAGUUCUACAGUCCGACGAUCUAACCACAUCAAGAUGGUUGGGAAGCUGAAGCAGAACUUACUCUUGGCGUGUCUGGUGAUUAGUUCUGUGACCGUGUUUUACCUGGGCCAGCAUGCCAUGGAAUGCCAUCACCGAAUAGACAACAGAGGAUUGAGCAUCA`, the bound/input enrichment was 0.196 ratio.
`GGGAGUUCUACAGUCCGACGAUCGGAAGCACAAUGAUGGAGAUUGAUGGUGACAAAGGCAAGCAGGGCGGGCCCACCUACUACAUAGACACCAAUGCCCUGCGUGUUCCGAGGGAGAACAUGGAGGCCAUCUCACCACUCAAGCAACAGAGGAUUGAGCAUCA` gave a bound/input enrichment of 0.209 ratio.
For `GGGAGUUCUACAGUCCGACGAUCGACAGUGAAGGCCCACUGUGUGAAUUGCUUUUUUUCUUCCUGACUGCAAUCUUCCAGGCAAUAGCUGAAGAAGAAGAGGAAGUAGCCAAAGAGCAGAUAACUGAUGCUGACACCAAAGAUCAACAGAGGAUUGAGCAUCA`, the bound/input enrichment was 0.0776 ratio.
The bound/input enrichment of `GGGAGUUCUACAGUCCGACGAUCGGCCUGGGACCGUCCUGGGCUAGUACAAAUAGCGGCAGUGGAGGCUCAGAGGAAAGUUUUGUUAGUGGAGGCAGUGGUAGAGGCCGUCAUGUACGGUCUUUACACGAAUAGAUGUGUUCUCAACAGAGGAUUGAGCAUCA` is reported as 0.675 ratio.
`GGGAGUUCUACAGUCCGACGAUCGUGACUGGUGUUAAGAUUUCCCCUCAGCAAAGAAGUGCAGUAGUCACCAUAAUUCCAUCUAUAGUGAGUGCCAGUCAGAUUGUGGAGCUGGUCCCAGAACUCAGUUUAGACAUGGGAACUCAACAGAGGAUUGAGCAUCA` has a bound/input enrichment of 2.17 ratio.

Block 5 — method: protein binding microarray; form: double-stranded DNA, one strand shown; medium: in vitro; concentration: not given; baseline: not given; direction: higher = stronger binding
Target: Histone acetyltransferase KAT6A, winged helix 1, GST fusion (KAT6A, Homo sapiens, UniProt Q92794, residues 1-85)
Notes: 8-mer, flanks averaged, mean of 2 arrays, mostly near background
Residues (chain): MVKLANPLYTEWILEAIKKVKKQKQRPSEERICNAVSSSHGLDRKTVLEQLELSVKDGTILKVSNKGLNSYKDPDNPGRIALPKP
For `AGCCTATC`, the E-score was -0.139.
With `ACTTTGTC` the E-score was -0.136.
The E-score of `CGAGGCTC` is reported as 0.139.
`CAACCCCG` gave an E-score of 0.243.
For `ACACAATC`, the E-score was -0.105.
`CACGATGA` gave an E-score of -0.0714.
With `AGTATAAA` the E-score was 0.0935.
For `CGCCGACA`, the E-score was 0.349.
`AACTCAAA` gave an E-score of -0.14.
`CTCTTGTA` gave an E-score of -0.133.
With `CAGGCTGA` the E-score was -0.0351.
`ACCTCTAA` has an E-score of -0.104.
For `CCCGCGCA`, the E-score was 0.413.
The E-score of `GCACAGCC` is reported as 0.228.
For `CCGATTTA`, the E-score was 0.0305.
`GATCCACA` gave an E-score of -0.162.
For `AATTCAAA`, the E-score was -0.254.
`CGTGGTGC` has an E-score of 0.0774.
With `CACCACCC` the E-score was 0.0286.
With `TACAAAGA` the E-score was -0.134.
`ATCCGGCA` gave an E-score of -0.00709.
With `CTAGCATC` the E-score was -0.0372.
`CAGGTACC` gave an E-score of -0.0533.
For `GCCCACAA`, the E-score was -0.153.
For `CTGAAGTC`, the E-score was -0.074.
